Measured values pooled from the literature.
Compare with care: the assays were run in different laboratories. ± marks the error that the study gave.

Structure (SMILES) | target or system | test | test system | setting | scale | endpoint | result
CN[C@@H]1COc2c(S(=O)(=O)NC(=O)Nc3c4c(cc5c3CCC5)CCC4)cnn2C1 |  | item: IL-1β | human participants, whole blood ex vivo | 900 mg twice daily, multiple doses, 144 h, added: LPS/ATP | baseline: baseline | inhibition | 99.4%
CC(C)NCC(O)c1ccc(O)c(O)c1 (centres unmarked) |  |  | ventricular cardiomyocytes, C57BL/6 mouse | dose not given, 0.436 s |  | sarcomere length | 1.72 µm
Cn1cc(-c2ccc(-c3cncc(Cl)c3N3CCC4(CCNC4=O)CC3)cc2)cn1 | COLO 205 | microarray, item: FABP5 |  | concentration not given, 2 h, gene set E-FABP | baseline: untreated cells | fold change in expression | -2.03
N=C(N)NCCC[C@H](NC(=O)[C@H](CCCNC(=N)N)NC(=O)[C@H](CCCCN)NC(=O)[C@H](CCC(N)=O)NC(=O)[C@H](CCCCN)NC(=O)[C@H](Cc1ccc(O)cc1)NC(=O)[C@@H](N)CCCCN)C(=O)N[C@@H](CO)C(=O)N[C@@H](Cc1ccc(O)cc1)C(=O)N[C@@H](CCCCN)C(=O)O |  |  | human, dentin hypersensitivity patients | topical to tooth, 10 µg/tooth repeated, day 36, phase 1/2a trial, higher-VAS tooth, added: cold water at 4°C | direction not given | change in VAS score | -23.2 ± 19.4 mm
N#Cc1ccn2c(-c3ccncc3)c(-c3ccc(F)cc3)nc2c1 |  | kinase binding, competitor, MIB/MS competition, item: IKS1 | Candida albicans cell lysate | 1 µM | baseline: DMSO | log2 fold change | 0.0194
OC(CCN1CCCCC1)(c1ccccc1)C1CC2C=CC1C2 (centres unmarked) |  | resting-state EEG | healthy elderly humans | oral, 2 mg, eyes open, LS mean |  | beta power, EEG, Fz Cz | 5.2 µV²
O=C1CCSC1 | THP-1 | pyroptotic LDH release |  | 2 µM, 40 min, added: LPS then nigericin |  | inhibition | 47.4%
CCN1CCN(Cc2ccc(Nc3ncc(F)c(-c4cc(F)c5nc6n(c5c4)[C@H](C)CCC6)n3)nc2)CC1 |  |  | human advanced solid tumours | 50 mg, phase Ia monotherapy RECIST 1.1 |  | non-CR/non-PD | 0%
Cc1[nH]c(/C=C2\C(=O)Nc3ccc(S(=O)(=O)Cc4c(Cl)cccc4Cl)cc32)c(C)c1C(=O)N1CCC[C@@H]1CN1CCCC1 | THP-1 | pyroptotic LDH release |  | 2 µM, 40 min, added: LPS then nigericin |  | inhibition | 64.4%
O=C(O)CNC(=O)Cc1ccccc1 |  |  | ventricular cardiomyocytes, C57BL/6 mouse | dose not given, 0.46 s |  | sarcomere length | 1.7 µm
NCC(=O)Nc1cncc(-c2nn3c(=O)cc(N4CCNCC4)nc3s2)c1 |  | ADP-induced platelet aggregation, light transmission aggregometry | human, stable CAD on aspirin, platelets ex vivo | subcutaneous, 0.075 mg/kg, 15 min post-dose, added: ADP 20 µM |  | median inhibition | 90.1%

Excerpt of the above:
Structure (SMILES) | target or system | test | test system | setting | scale | endpoint | result
O=C1CCSC1 | THP-1 | pyroptotic LDH release |  | 2 µM, 40 min, added: LPS then nigericin |  | inhibition | 47.4%
